Results from different studies.
Numbered parts are unrelated; each lists some results of a single study. Substitutions count along the parent as printed.

Sample 1
Target: Prothrombin, mature alpha-thrombin (F2, Homo sapiens, UniProt P00734)
Method: aptamer microarray, sandwich
Molecule type: DNA with 2'F-ANA
Medium: in vitro
Tested at: 200 nM
Notes: whole 15-mer aptamer, many near background
With: Cy3 exosite-II aptamer, 400 nM
Direction: higher = stronger binding
Oligonucleotide: GGTTGGTGTGGTTGG
| Modification | mean fluorescence intensity [a.u.] |
| --- | --- |
| 2'F-ANA at 1 4 6 8 9 12 13 14 15 | 57.2 |
| 2'F-ANA at 2 4 9 10 11 12 13 15 | 89.5 |
| 2'F-ANA at 1 2 4 5 6 7 | 54.8 |
| 2'F-ANA at 2 8 10 11 15 | 211 |
| 2'F-ANA at 1 2 3 9 10 11 13 15 | 84.9 |
| 2'F-ANA at 3 4 5 6 9 10 11 12 14 | 48.7 |
| 2'F-ANA at 2 5 8 11 13 14 | 53.4 |
| 2'F-ANA at 1 2 3 | 299 |
| 2'F-ANA at 2 4 6 9 10 11 12 15 | 103 |
| 2'F-ANA at 3 4 5 6 7 9 12 | 211 |
| 2'F-ANA at 2 3 4 7 12 15 | 922 |
| 2'F-ANA at 1 2 3 4 9 12 13 14 15 | 205 |
| 2'F-ANA at 1 2 4 7 10 12 14 15 | 46.1 |
| 2'F-ANA at 1 2 4 9 10 11 12 13 15 | 56.9 |
| 2'F-ANA at 6 8 9 13 | 377 |
| 2'F-ANA at 2 5 6 11 13 15 | 51.9 |
| 2'F-ANA at 1 2 4 5 7 8 9 11 12 | 94.3 |

Sample 2
Target: ABI1, truncated, D143A, DHFR fusion (Arabidopsis thaliana)
Method: DHFR PCA, deep sequencing
Medium: yeast
Notes: methotrexate growth selection, single substitutions
With: (+)-ABA 0.39 µM
Baseline: wild-type fitted maximum
Direction: higher = stronger binding
Starting sequence: PYL1, truncated, DHFR fusion (Arabidopsis thaliana); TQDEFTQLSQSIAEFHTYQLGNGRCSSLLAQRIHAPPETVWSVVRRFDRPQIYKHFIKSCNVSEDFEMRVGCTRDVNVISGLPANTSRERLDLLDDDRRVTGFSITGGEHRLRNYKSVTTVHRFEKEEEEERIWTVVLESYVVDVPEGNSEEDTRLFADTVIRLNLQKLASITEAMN; partner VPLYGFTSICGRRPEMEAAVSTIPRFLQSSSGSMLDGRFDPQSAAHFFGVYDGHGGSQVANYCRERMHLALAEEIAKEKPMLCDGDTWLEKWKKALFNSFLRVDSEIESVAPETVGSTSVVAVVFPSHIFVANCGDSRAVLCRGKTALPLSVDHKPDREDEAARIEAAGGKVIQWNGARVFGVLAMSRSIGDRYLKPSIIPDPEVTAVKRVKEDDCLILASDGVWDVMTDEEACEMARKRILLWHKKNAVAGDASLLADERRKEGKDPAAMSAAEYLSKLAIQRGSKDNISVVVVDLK
| Substitution | relative binding score [%] |
| --- | --- |
| S104K | -8.46 |
| V145Y | -15.9 |
| R45A | -3.43 |
| E151R | 30.6 |
| T160W | -1.99 |
| F47H | -14.4 |
| S140H | 9.29 |
| L29P | -0.731 |
| D96T | -6.66 |
| K126F | 37 |
| I162M | 3.92 |
| V161P | -1.11 |
| L164W | 16.2 |
| R98S | -2.05 |
| Y141H | 5.78 |
| F47A | -13.9 |
| M68H | 7.42 |

Sample 3
Target: Sal-like protein 4, full length isoform A (SALL4, Homo sapiens, UniProt Q9UJQ4, residues 1-1053)
UniProt Q9UJQ4, sequence (whole entry, looked up): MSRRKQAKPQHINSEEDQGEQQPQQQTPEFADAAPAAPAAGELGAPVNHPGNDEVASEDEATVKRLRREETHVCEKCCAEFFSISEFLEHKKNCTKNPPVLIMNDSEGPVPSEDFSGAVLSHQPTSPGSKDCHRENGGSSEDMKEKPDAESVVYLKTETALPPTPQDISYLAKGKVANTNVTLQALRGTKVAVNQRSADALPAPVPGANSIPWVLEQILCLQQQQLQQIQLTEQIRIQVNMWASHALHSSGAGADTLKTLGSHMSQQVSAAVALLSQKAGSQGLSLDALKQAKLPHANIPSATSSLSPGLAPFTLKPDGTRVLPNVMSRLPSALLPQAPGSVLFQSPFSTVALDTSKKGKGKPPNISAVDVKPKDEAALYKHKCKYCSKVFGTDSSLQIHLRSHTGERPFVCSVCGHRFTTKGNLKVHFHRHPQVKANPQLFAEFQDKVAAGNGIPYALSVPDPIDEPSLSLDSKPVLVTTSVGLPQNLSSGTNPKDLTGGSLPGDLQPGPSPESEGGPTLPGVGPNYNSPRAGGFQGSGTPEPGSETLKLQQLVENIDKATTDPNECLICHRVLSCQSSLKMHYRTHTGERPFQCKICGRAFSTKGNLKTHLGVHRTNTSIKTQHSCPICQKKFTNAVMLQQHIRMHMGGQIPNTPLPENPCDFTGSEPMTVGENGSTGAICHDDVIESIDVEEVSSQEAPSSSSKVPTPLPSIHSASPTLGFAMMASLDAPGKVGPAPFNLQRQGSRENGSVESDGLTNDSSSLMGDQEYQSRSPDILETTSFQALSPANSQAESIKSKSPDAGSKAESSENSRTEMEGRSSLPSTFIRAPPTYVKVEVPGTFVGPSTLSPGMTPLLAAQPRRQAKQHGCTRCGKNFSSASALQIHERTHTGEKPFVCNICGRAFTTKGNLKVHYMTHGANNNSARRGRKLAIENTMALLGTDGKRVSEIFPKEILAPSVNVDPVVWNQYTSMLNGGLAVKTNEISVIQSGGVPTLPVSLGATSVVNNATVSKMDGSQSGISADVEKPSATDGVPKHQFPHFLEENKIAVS
Method: universal PBM
Molecule type: double-stranded DNA, one strand shown
Medium: in vitro
Tested at: 600 nM
Notes: 8-mer, flanks averaged, mean of replicates
Direction: higher = stronger binding
| Oligonucleotide | E-score |
| --- | --- |
| GACTCTAA | 0.107 |
| ACAAGCAC | -0.099 |
| AGTAATAG | 0.33 |
| ACAGAAAG | 0.115 |
| ACTAGAAC | 0.0898 |
| GAAATAGC | 0.0851 |
| GCGCCACC | -0.344 |
| AGGACCGC | -0.223 |
| GTTCCAGA | 0.0407 |
| AACAGCCT | -0.199 |
| GCGGTTCC | -0.198 |
| CCGTAGAC | -0.118 |
| GCGTATGA | 0.0758 |
| ACTCAAAA | 0.182 |
| CTGCAGGA | -0.0038 |
| ACACTATG | 0.138 |
| GCACCAGA | -0.154 |
| GGACGAAA | -0.098 |
| ACCGAATG | 0.0545 |
| AAAACTCA | 0.217 |
| TCGGACCA | -0.115 |
| CCCCCTTC | -0.376 |
| ATGGCGGG | -0.131 |
| ATAGTGAA | 0.258 |

Sample 4
Target: CCNE2, cyclin fold, Cln2 fusion (human)
Method: yeast growth competition, sequencing
Medium: yeast
Notes: strong parent motif
Baseline: not given
Direction: higher = stronger binding
Starting sequence: CDC25A docking peptide (human); PPHRRRLLFACSP; partner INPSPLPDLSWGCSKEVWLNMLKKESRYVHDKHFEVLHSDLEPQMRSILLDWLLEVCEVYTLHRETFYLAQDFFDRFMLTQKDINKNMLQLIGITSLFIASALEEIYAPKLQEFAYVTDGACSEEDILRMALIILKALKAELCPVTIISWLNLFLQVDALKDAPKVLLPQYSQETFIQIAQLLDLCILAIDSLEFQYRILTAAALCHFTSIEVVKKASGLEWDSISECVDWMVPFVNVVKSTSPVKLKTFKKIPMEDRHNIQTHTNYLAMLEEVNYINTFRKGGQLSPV
| Substitution | normalised enrichment score |
| --- | --- |
| PPNRRRLLFACSP [H3N] | 0.97 |
| PPHRRRCLFACSP [L7C] | 1.29 |
| GPHRRRLLFACSP [P1G] | 1.51 |
| PPPRRRLLFACSP [H3P] | 0.754 |
| PPHRRRLLFAFSP [C11F] | 0.884 |
| PPHRRRLLGACSP [F9G] | 1.29 |
| PPHRRRLLPACSP [F9P] | 0.679 |
| PPHRMRLLFACSP [R5M] | 1.21 |
| PPQRRRLLFACSP [H3Q] | 0.717 |
| PPHRFRLLFACSP [R5F] | 1.24 |
| VPHRRRLLFACSP [P1V] | 0.991 |
| PPHRRRLMFACSP [L8M] | 1.72 |
| PPHERRLLFACSP [R4E] | 0.484 |
| PPHARRLLFACSP [R4A] | 1.5 |
| PPHRRRLLFSCSP [A10S] | 2.41 |
| NPHRRRLLFACSP [P1N] | 1.29 |
| APHRRRLLFACSP [P1A] | 1.9 |
| PPHFRRLLFACSP [R4F] | 1.2 |

Sample 5
Target: CREB3, bZIP domain (human)
Method: DHFR protein complementation
Medium: yeast
Notes: single substitutions, most at no-binding floor
Baseline: wild-type JUN-FOS pair
Direction: higher = stronger binding
Starting sequence: JUN, bZIP domain (human); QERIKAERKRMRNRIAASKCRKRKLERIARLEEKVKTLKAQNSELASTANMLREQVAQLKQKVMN; partner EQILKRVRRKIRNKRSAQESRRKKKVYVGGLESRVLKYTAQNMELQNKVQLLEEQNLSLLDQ
| Substitution | binding fitness [natural log] |
| --- | --- |
| K36D | -1.49 |
| L52E | -1.5 |
| L45Q | -1.51 |
| R30G | -1.38 |
| E54N | -1.5 |
| T48V | -1.42 |
| L31P | -1.54 |
| A49S | -1.42 |
| M51P | -1.54 |
| E32D | -1.59 |
| Q41V | -1.5 |
| N42H | -1.42 |
| S43G | -1.4 |
| L52W | -1.53 |
| L45E | -1.5 |
| N42M | -1.43 |

Sample 6
Target: Histone acetyltransferase KAT6A, winged helix 2, GST fusion (KAT6A, Homo sapiens, UniProt Q92794, residues 85-181)
Method: protein binding microarray
Molecule type: double-stranded DNA, one strand shown
Medium: in vitro
Tested at: not given
Notes: 8-mer, flanks averaged, mean of 2 arrays, mostly near background
Baseline: not given
Direction: higher = stronger binding
Residues (chain): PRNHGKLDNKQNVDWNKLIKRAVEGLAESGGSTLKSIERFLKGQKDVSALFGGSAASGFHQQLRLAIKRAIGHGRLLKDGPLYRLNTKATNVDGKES
| Oligonucleotide | E-score |
| --- | --- |
| ACACAGAA | 0.128 |
| AGGCGTTC | -0.0842 |
| AAATCACC | 0.00805 |
| AGGAGATA | -0.169 |
| ACTGCACC | 0.125 |
| TGCGAGCA | 0.0445 |
| ACCAAAGA | 0.152 |
| AAATCGGA | 0.113 |
| GAATGGCC | 0.0793 |
| GCTGAGCC | -0.089 |
| AGAGTCTA | -0.211 |
| CCTACTTC | 0.0687 |
| CGCCCACC | 0.0735 |
| GTCATTTA | -0.201 |
| AGTCAACG | -0.118 |
| GGGATCGA | 0.0682 |
| CAGAACTA | -0.0888 |
| AGAGTAAA | 0.00171 |
| CACACAAG | 0.0358 |
| CCTCAGTC | -0.0317 |
| CCGGGAAG | 0.0662 |
| CTTCCCAC | 0.0681 |
| AAGGAGGC | -0.0567 |

Sample 7
Target: Interferon regulatory factor 3, full length, phosphomimetic (IRF3, Homo sapiens, UniProt Q14653, residues 1-427, S386D/S396D/S398D/S402D/T404D/S405D)
Method: protein-binding microarray
Molecule type: double-stranded DNA, one strand shown
Medium: in vitro
Tested at: 2540 nM top
Notes: 60-bp whole probe
With: salmon DNA 0.4 mg/ml
Baseline: random background probes
Direction: higher = stronger binding
Shared flanks, not repeated: GCCTAGCAC … GTCTTGATTCGCTTGACGCTGCTG
Residues (chain): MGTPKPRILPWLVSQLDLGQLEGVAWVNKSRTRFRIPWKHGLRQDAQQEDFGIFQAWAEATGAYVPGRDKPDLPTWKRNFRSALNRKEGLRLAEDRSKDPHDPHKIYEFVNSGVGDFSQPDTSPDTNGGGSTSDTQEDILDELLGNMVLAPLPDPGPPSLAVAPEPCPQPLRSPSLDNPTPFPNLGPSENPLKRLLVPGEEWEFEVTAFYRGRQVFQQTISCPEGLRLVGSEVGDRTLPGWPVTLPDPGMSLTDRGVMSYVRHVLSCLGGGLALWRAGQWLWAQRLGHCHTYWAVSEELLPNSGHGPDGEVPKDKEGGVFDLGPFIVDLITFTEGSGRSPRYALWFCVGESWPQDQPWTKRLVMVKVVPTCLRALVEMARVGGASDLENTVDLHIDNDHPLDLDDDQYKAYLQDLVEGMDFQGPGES
| Oligonucleotide | fitted relative affinity [z-score] |
| --- | --- |
| GACGGTTTCCTACTGCTGATGTGCTAG | 4.97 |
| GACGGTTTCGGGTTTCCGGACGTGCTA | 6.09 |
| GACAATTTCGGGACTGGAGACGTGCTA | 1.58 |
| GACGGTTTCCTATTCCTGACGTGCTAG | 7.08 |
| GACCCTGGACACTTCACGTAGTGCTAG | -0.513 |
| TCATGTTTGGGTCTTGTACTGTGCTAG | -0.174 |
| GACGGTATCGGACTGGGAACGTGCTAG | 1.52 |
| TTGGATTTCAGACTGGATTAGTGCTAG | 0.219 |
| TTAGGTTTCCTTAACCTTTAGTGCTAG | 4.59 |
| TCCATTTTCTAAATGCCCTGGTGCTAG | 2.79 |
| GACGGACTGGGACTCGGGACGTGCTAG | -0.696 |
| TCAAGTTTCCATTTTCAACTGTGCTAG | 9.09 |
| GACGATTTCCTTTTCCTGACGTGCTAG | 7.18 |
| GATGAACTGAGTATCGAGACGTGCTAG | -0.341 |
| TTAGGACTGCTTATCCTGTAGTGCTAG | -0.344 |
| TTAGGACTGGACTCTGGGTTAGTGCTA | -0.838 |
| TTAGGACTGCTCATCCTTTAGTGCTAG | -0.183 |
| TTCGGTTTCGGTCTCGGTTAGTGCTAG | 8.72 |

Excerpt of the above (sample 5):
| Substitution | binding fitness [natural log] |
| --- | --- |
| K36D | -1.49 |
| L52E | -1.5 |
| L45Q | -1.51 |
| R30G | -1.38 |
| E54N | -1.5 |
| T48V | -1.42 |
| L31P | -1.54 |
| A49S | -1.42 |
| M51P | -1.54 |
| E32D | -1.59 |
| Q41V | -1.5 |
| N42H | -1.42 |
| S43G | -1.4 |
| L52W | -1.53 |
| L45E | -1.5 |
| N42M | -1.43 |
